Experimental data collected from several papers.
Lines come from different studies, so protocols differ. Several values in a cell are separate wells, animals, samples, runs or records. ± gives the spread as reported. ≈ marks a conversion by molar mass, not a printed value.

SMILES | organism | assay | system | setting | scale | quantity | value
Nc1nc(Nc2ccc(Cl)cc2)nn1S(=O)(=O)c1ccc2ccccc2c1 | Venezuelan equine encephalitis virus | viral replication | Vero 76, TC-83 |  |  | EC50 | > 25 µM
Cc1ccc(NS(=O)(=O)c2c(C(=O)N3CCCCCC3)c(C)n(C)c2C)c(Cl)c1 | Vaccinia virus | viral infection | HaCaT | 11.11 µM, 36 h | relative to: untreated | infection | 0.858% and 1.02% and 0.533%
CC(C)CC(C(=O)N1CC2(CC1C#N)C(=O)Nc1ccccc12)N(C)C(=O)c1cc2c(F)cc(F)c(F)c2[nH]1 (stereo not shown) | SARS-CoV-2 | viral replication, infectious virus | Vero E6 | 0.9 µM |  | inhibition | 100%
CC(NC(=O)C(Cc1ccccc1)NC(=O)OCc1ccccc1)C(=O)CF (stereo not shown) | SARS-CoV-2 USA_WA1/2020 |  | Vero E6 | concentration not given, 72 h |  | inhibition of cytopathic effect | 105%
Oc1ccccc1Oc1ccccc1 | Francisella tularensis | bacterial growth | LVS |  |  | MIC90 | 2.5 ± 0.2 µg/mL (≈ 13.4 µM)
C[C@@H]1CCCN1CCc1cc2cc(-c3ccc(C#N)cc3)ccc2o1 | Naegleria fowleri |  | ATCC 30808 |  | relative to: CC50 J774A.1 over IC50 trophozoites | selectivity ratio | 18.8
[O-][N+]1=C(c2ccc(Cl)cc2)C2=NCCCCN2c2ccccc21 | Clostridium perfringens | microbial growth |  |  |  | MIC50 | 16 µg/mL (≈ 49.1 µM)
N#Cc1ncn(COCCO)c1C#N | Mammarenavirus lassaense | viral replication | Vero | 48 h |  | IC90 | > 50 µg/mL
CN[C@@H]1[C@H](O)[C@H](NC)[C@H]2O[C@]3(O)[C@H](O[C@@H]2[C@H]1O)O[C@H](C)C[C@]3(O)CNCc1ccc(F)cc1 | Legionella pneumophila |  | ATCC 33153 | 40 µg per disc, 48 h |  | inhibition zone diameter | 0 mm
Cc1ccc(N2CC(N3CCC(C)(O)CC3)C2)cc1C(=O)NC1(c2ccc3c4c(cccc24)CC3)CC1 | SARS-CoV-2 | viral replication | Vero C1008, Omicron BA.5 | 12.5 µM |  | inhibition | 100%
CC[C@H](C)[C@H](NC(=O)[C@H](CCCCN)NC(=O)[C@H](CCCCN)NC(=O)[C@H](CC(C)C)NC(=O)[C@H](Cc1c[nH]c2ccccc12)NC(=O)CN)C(=O)NCC(=O)N[C@@H](CCCCN)C(=O)N[C@@H](CCCCN)C(=O)N[C@H](C(=O)N[C@@H](CCC(=O)O)C(=O)N[C@@H](CCCNC(=N)N)C(=O)N[C@H](C(=O)NCC(=O)N[C@@H](CCC(N)=O)C(=O)N[C@@H](Cc1c[nH]cn1)C(=O)N[C@H](C(=O)N[C@@H](CCCNC(=N)N)C(=O)N[C@@H](CC(=O)O)C(=O)N[C@@H](C)C(=O)N[C@H](C(=O)N[C@H](C(=O)N[C@@H](CCC(N)=O)C(=O)N[C@H](C(=O)N[C@H](C(=O)NCC(=O)N[C@H](C(=O)N[C@@H](C)C(=O)N[C@@H](CCC(N)=O)C(=O)N[C@@H](CCC(N)=O)C(=O)N[C@@H](C)C(=O)N[C@@H](C)C(=O)N[C@@H](CC(N)=O)C(=O)N[C@H](C(=O)N[C@@H](C)C(=O)N[C@@H](C)C(=O)N[C@H](C(=O)N[C@@H](CC(C)C)C(=O)N[C@@H](CCCCN)C(N)=O)[C@@H](C)O)C(C)C)C(C)C)[C@@H](C)CC)[C@@H](C)O)[C@@H](C)CC)[C@@H](C)O)[C@@H](C)O)C(C)C)[C@@H](C)CC | Candida albicans | broth microdilution | FH2173, CAMHB |  |  | MIC | > 1020 µg/mL
O=S(=O)(O)c1c2ccccc2c(-c2c3nc(c(-c4c5ccccc5c(S(=O)(=O)O)c5ccccc45)c4ccc([nH]4)c(-c4c5ccccc5c(S(=O)(=O)O)c5ccccc45)c4nc(c(-c5c6ccccc6c(S(=O)(=O)O)c6ccccc56)c5ccc2[nH]5)C=C4)C=C3)c2ccccc12 | vaccinia virus |  | CV-1, WR | 50 µg/mL, 16 h |  | viral titre | 580000 PFU/mL
O=[N+]([O-])c1ccc(C2=[N+]([O-])c3ccccc3N3CCCN=C23)cc1 | Clostridium perfringens | microbial growth |  |  |  | MIC50 | 0.5 µg/mL (≈ 1.55 µM)
COC(=O)c1ncn(CCOC(C)=O)c1C(=O)OC | Mammarenavirus lassaense | viral replication | Vero | 48 h |  | IC90 | 58 µg/mL (≈ 215 µM)
[O-][N+]1=C(Cc2ccccc2)C2=NCCCN2c2ccccc21 | Clostridium perfringens | microbial growth |  |  |  | MIC50 | > 32 µg/mL
CCOP(=O)(CCOCn1cnc(C#N)c1C#N)OCC | Mammarenavirus lassaense | viral replication | Vero | 48 h |  | IC90 | 27 µg/mL (≈ 86.5 µM)
Oc1ccc(Br)cc1-c1nc2cc(C(F)(F)F)ccc2s1 | SARS-CoV-2 replicon | N-HiBiT luminescence | HeLa | 2 µM | relative to: DMSO | replicon activity | 82.8% and 80% and 57.5% and 43.4% and 60.3% and 85.6%
N#Cc1ncn(COCCBr)c1C#N | Severe acute respiratory syndrome coronavirus | viral replication | Vero | 48 h |  | IC50 | 17 µg/mL (≈ 66.6 µM)
CN[C@@H]1[C@H](O)[C@H](NC)[C@H]2O[C@]3(O)[C@H](O[C@@H]2[C@H]1O)O[C@H](C)C[C@H]3NC(=O)Cc1ccccn1 | Bacillus anthracis | microbial growth | STERNE34F2 |  |  | MIC | 50 µg/mL (≈ 110 µM)
COc1ccc(C2=[N+]([O-])c3ccccc3N3CCCN=C23)cc1 | Clostridium perfringens |  |  |  |  | MIC | 4 to 64 µg/mL (≈ 13 to 208 µM)
CC(C)C1=CC2=CC[C@@H]3[C@](C)(CCC[C@@]3(C)C(=O)OCC#CCN3CCCC3)[C@H]2CC1 | SARS-CoV-2 pseudovirus |  | BHK-21-hACE2 | 20 µM |  | infected cells | decreased
O=[N+]([O-])c1ccc(-n2nc(-c3ccccc3)cc2-c2ccc(F)cc2)c([N+](=O)[O-])c1 | Japanese encephalitis virus | plaque | Neuro2a, SA14-14-2 | 15 µM, 72 h, co-treatment |  | viral particle reduction | ~55%
